Published values collected from several papers.
Compare with care: the assays were run in different laboratories. Values joined by “and” are separate records of one study, mostly repeats; a detail may differ.
Target: Insulin receptor-related protein (INSRR, Homo sapiens, UniProt P14616)

Compound	assay	conditions	how to read	endpoint	value
CNC(=O)C1CCN(c2cc(C)c(F)cc2NC(=O)c2ccc(-c3cc(O)ccc3C)c(C)c2)CC1	binding, competition with immobilised ligand	1 µM	–	remaining binding	100%
CN1CC[C@@H](COc2cnc(C#N)cc2-c2ccn3nc(NC(=O)C4CC4)cc3c2)C1	enzyme activity, inhibitor	1 µM	–	inhibition	-5%
Cc1cccc(-c2ccc3nc(NC(=O)C4CCCO4)nn3c2)c1 (centres unmarked)	enzyme activity, Dundee kinase panel	10 µM	–	remaining activity	50%
COc1cc(Nc2nccc(-c3cnn4nc(OC)ccc34)n2)cc(C(F)(F)F)c1	binding, competition with immobilised ligand	1 µM	–	remaining binding	95%
CNC1C[S+]2CC[S+]3CC[S+](C1)[Ru-4]321([N]=C=S)[n]2c3ccc(OC)cc3c3c4c(c5cc(F)c[n+]1c5c32)C(=O)NC4=O (centres unmarked)	KinomeScan	0.1 µM	relative to: untreated	remaining binding	100%
CC(C)=CC1OC(C)(C)C2C=C3C(=O)C(Cl)=CC(O)C3C3C(O)C4OC4C(=O)C132 (centres unmarked)	cell-free assay, competition with immobilised ligand	10 µM	–	remaining binding	100%
COCC12C(=O)NC3C4(C(OC)CC1O)C1CC5(O)C(OC)C(O)C(OC(C)=O)(C1C5OC(=O)c1ccccc1)C3(O)C(OC)C24 (centres unmarked)	kinase activity, inhibitor, ProQinase kinase profiling	25 µM	relative to: control	remaining activity	109% and 111%
C=CC(=O)Nc1cccc(-c2cnc3[nH]cc(C(=O)NC(C)(C)C)c3n2)c1	enzyme activity, inhibitor	0.1 µM	–	inhibition	1%
CNC(=O)C[C@H](Cc1ccc(C#N)cc1)NC(=O)c1cc(-c2ccc(CN[C@H](C)c3ccc(C)cc3)o2)ccc1Cl	enzyme activity, inhibitor	1 µM	–	activity vs control	103%
Nc1ncc(-c2cc(-c3cnn(CC(F)(F)F)c3)ncc2F)nc1C(=O)NC1CNCC(F)C1 (centres unmarked)	enzyme activity	1 µM	relative to: DMSO control	remaining activity	97%
Cc1ccc(-c2c(/C=C(\C#N)C(=O)NC(C)C)n(CCCO)c3ncnc(N)c23)cc1	cell-free assay, competition with immobilised ligand	1 µM	–	remaining binding	100%
COc1c(Cl)cccc1Nc1c(-c2ccncc2C#C[C@@]2(C)CCCN2C(=O)/C=C/CN(C)C)[nH]c2c1C(=O)NCC2	binding, competition with immobilised ligand	3 µM	–	remaining binding	100%
Cc1cccc(O[C@H]2CCC[C@@H](C(C)CNCc3ccncc3)C2)c1 (relative stereo)	cell-free assay	10 µM	–	inhibition	3%
Cc1cccc(-c2ccc3nc(NC(=O)C4CCCCC4)nn3c2)c1	enzyme activity, Dundee kinase panel	10 µM	–	remaining activity	11%
O=C(Cc1ccc(OCc2ccccc2)cc1)NC1(C(=O)O)CCN(C(=O)c2ccc(-c3cccc(Cl)c3)cc2)CC1	enzyme activity, inhibitor	10 µM	–	activity vs control	113%
CN1CCN(Cc2ccc(-c3ccc(CO[C@H]4CCC[C@@H]4NC(=O)c4cc(-c5cnn(C)c5)cnc4N)cc3)cc2)CC1	enzyme activity, inhibitor	0.1 µM	–	inhibition	8%
NC(=O)[C@@H](O)C[C@H]1CCc2sc3ncnc(O[C@H]4CC[C@H](N5CCOCC5)CC4)c3c21	enzyme activity, inhibitor	10 µM	–	inhibition	20%

Repeated from above:
Compound	assay	conditions	how to read	endpoint	value
NC(=O)[C@@H](O)C[C@H]1CCc2sc3ncnc(O[C@H]4CC[C@H](N5CCOCC5)CC4)c3c21	enzyme activity, inhibitor	10 µM	–	inhibition	20%
CN1CC[C@@H](COc2cnc(C#N)cc2-c2ccn3nc(NC(=O)C4CC4)cc3c2)C1	enzyme activity, inhibitor	1 µM	–	inhibition	-5%
C=CC(=O)Nc1cccc(-c2cnc3[nH]cc(C(=O)NC(C)(C)C)c3n2)c1	enzyme activity, inhibitor	0.1 µM	–	inhibition	1%
